Experimental data from different studies.
Compare with care: the assays were run in different laboratories. Values joined by “and” are separate records of one study, mostly repeats; a detail may differ. ± gives the spread as reported.
CA1: Carbonic anhydrase 1 (CA1, Homo sapiens, UniProt P00915)
Chain of UniProt P00915 (whole entry, looked up): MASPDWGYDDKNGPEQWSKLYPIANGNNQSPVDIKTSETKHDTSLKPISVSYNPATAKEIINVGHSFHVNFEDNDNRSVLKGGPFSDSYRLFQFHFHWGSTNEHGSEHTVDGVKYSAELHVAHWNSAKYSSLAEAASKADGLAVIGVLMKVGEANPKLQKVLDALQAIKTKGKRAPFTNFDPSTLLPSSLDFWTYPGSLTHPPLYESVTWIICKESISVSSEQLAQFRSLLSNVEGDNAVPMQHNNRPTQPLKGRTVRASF
PSMB6: Proteasome subunit beta type-6 (PSMB6, Homo sapiens, UniProt P28072)
Chain of UniProt P28072 (whole entry, looked up): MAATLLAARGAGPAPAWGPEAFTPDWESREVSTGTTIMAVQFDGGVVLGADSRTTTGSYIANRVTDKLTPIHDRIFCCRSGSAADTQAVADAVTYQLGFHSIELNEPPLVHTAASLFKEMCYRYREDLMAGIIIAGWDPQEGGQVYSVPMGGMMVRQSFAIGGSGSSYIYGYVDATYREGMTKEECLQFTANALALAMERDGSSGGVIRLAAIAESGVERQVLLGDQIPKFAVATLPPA
CatSper channel complex: CatSper channel complex (Homo sapiens, UniProt Q7RTX7+Q86XQ3+Q8NEC5+Q96P56)
Chain of UniProt Q96P56 (whole entry, looked up): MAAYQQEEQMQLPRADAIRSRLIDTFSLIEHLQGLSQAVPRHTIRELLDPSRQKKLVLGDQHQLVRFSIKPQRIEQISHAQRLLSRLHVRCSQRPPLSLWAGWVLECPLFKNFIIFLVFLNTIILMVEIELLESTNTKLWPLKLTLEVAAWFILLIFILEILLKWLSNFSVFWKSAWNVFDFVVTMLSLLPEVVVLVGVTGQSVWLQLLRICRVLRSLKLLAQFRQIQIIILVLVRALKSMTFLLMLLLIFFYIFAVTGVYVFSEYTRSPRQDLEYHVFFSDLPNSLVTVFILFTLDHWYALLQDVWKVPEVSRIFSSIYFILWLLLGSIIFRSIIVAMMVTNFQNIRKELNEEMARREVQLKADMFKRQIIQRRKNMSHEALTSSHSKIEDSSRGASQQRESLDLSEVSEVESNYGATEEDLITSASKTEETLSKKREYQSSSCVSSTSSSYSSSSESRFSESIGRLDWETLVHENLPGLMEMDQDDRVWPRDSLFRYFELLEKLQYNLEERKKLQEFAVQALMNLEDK
Chain of UniProt Q86XQ3 (whole entry, looked up): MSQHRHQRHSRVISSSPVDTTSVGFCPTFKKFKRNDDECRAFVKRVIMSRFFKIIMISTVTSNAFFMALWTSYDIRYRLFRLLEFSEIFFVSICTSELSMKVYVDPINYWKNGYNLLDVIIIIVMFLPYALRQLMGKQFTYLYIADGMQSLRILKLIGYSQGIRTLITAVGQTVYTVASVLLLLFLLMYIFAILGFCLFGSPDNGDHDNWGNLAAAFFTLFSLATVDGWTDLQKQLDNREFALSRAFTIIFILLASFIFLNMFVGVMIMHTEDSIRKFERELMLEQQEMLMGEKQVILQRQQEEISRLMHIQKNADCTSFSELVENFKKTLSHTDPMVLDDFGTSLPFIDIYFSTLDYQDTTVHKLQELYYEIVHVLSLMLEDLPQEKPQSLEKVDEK
PLA2G5: Phospholipase A2 group V (PLA2G5, Homo sapiens, UniProt P39877)
Chain of UniProt P39877 (whole entry, looked up): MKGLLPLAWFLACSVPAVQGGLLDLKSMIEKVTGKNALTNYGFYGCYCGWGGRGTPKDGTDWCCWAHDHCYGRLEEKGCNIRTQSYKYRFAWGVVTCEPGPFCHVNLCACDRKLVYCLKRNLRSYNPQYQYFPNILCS
ABCG2: Broad substrate specificity ATP-binding cassette transporter ABCG2 (ABCG2, Homo sapiens, UniProt Q9UNQ0)
Chain of UniProt Q9UNQ0 (whole entry, looked up): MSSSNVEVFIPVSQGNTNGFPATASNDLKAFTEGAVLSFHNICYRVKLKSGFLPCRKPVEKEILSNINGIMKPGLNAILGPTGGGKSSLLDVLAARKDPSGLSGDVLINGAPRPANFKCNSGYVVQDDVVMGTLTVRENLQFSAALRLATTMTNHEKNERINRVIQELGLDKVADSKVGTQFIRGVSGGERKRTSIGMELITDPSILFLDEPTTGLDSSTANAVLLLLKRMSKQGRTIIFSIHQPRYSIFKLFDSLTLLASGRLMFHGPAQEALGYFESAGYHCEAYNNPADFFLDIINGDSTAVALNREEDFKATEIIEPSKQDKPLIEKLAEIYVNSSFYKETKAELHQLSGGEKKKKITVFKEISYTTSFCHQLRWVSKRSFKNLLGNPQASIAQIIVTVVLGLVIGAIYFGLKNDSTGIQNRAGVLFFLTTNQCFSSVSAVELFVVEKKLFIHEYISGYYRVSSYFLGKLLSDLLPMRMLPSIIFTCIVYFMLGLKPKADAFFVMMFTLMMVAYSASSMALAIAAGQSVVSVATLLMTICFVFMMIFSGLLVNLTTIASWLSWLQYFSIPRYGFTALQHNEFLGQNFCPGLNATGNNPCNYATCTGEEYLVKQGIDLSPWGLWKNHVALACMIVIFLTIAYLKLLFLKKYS
CSK: Tyrosine-protein kinase CSK (CSK, Homo sapiens, UniProt P41240)
Chain of UniProt P41240 (whole entry, looked up): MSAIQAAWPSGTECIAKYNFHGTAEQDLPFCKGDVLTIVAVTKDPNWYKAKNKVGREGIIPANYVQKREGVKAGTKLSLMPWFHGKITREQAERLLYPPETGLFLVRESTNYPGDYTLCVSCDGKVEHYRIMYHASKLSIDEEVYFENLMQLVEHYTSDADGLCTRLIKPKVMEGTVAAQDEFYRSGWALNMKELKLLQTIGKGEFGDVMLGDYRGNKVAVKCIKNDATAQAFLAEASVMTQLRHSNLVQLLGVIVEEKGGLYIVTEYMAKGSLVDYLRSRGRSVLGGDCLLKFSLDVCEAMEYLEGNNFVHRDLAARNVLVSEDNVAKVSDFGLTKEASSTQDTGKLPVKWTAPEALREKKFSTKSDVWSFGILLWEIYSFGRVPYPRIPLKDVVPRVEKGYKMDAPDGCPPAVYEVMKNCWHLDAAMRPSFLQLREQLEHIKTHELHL
Toll-like receptor 3: Toll-like receptor 3 (Homo sapiens, UniProt O15455)
Chain of UniProt O15455 (whole entry, looked up): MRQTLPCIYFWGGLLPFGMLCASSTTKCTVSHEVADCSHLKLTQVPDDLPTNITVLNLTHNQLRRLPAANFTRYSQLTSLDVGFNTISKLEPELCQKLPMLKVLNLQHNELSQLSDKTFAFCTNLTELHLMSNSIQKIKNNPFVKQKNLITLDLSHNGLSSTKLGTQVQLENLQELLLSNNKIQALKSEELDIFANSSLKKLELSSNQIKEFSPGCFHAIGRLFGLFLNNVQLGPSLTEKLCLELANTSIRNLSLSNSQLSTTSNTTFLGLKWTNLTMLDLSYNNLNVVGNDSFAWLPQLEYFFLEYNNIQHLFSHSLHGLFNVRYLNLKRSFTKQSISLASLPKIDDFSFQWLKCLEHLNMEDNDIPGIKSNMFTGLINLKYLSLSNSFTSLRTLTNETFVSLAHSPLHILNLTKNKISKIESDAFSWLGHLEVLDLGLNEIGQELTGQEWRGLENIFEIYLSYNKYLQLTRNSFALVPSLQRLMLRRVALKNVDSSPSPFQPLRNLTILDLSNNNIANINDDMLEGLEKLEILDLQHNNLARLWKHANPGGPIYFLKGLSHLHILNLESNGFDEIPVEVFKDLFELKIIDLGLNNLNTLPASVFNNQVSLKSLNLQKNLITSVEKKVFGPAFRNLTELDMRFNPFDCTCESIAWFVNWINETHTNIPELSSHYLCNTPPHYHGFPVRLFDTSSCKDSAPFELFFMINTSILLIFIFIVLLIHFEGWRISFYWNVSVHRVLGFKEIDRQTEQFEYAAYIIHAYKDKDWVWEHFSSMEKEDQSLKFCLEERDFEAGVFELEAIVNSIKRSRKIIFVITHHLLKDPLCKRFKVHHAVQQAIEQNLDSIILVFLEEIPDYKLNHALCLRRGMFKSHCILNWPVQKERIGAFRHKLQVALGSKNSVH
KCNH2: Voltage-gated inwardly rectifying potassium channel KCNH2 (KCNH2, Homo sapiens, UniProt Q12809)
Chain of UniProt Q12809 (whole entry, looked up): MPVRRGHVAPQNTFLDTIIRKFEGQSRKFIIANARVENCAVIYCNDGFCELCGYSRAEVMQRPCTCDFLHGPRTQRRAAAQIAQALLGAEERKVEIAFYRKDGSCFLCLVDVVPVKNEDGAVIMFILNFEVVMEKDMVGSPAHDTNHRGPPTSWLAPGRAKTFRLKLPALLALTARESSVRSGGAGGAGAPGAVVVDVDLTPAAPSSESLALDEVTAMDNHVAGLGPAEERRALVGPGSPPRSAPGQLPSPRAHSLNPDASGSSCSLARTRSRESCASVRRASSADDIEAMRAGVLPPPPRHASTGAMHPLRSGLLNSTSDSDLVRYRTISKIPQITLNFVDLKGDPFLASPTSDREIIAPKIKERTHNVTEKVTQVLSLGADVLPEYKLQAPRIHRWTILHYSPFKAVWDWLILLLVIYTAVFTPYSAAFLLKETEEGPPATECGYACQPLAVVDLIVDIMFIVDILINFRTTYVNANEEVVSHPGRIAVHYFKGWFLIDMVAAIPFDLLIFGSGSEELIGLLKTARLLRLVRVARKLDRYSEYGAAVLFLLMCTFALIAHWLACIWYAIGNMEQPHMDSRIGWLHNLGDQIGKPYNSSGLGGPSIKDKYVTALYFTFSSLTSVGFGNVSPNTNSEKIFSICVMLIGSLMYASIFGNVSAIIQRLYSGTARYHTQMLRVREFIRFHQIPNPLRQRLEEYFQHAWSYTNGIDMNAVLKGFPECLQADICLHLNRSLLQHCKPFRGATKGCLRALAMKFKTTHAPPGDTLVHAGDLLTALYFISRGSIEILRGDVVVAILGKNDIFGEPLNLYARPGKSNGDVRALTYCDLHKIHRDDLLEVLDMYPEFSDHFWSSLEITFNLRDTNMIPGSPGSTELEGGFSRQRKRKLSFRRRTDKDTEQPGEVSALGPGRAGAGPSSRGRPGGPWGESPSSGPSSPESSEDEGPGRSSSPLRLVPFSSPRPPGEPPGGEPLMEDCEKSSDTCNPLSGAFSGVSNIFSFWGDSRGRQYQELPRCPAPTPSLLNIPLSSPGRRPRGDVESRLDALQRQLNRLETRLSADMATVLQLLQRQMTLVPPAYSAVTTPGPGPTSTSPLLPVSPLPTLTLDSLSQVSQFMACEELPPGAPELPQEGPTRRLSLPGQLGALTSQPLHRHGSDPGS
Chain of UniProt Q96S44 (whole entry, looked up): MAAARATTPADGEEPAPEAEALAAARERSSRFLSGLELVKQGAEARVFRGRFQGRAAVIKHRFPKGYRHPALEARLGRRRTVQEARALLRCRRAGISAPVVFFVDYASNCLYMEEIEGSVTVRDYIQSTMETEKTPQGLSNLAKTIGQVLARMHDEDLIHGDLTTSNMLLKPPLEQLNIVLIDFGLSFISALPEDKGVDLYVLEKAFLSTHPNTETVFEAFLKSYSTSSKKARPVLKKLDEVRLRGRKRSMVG

SMILES | target | test | test system | setting | how to read | IC50
CCS(=O)(=O)N1CCN(c2ccc(Nc3ncc(C(N)=O)c(NC4CC4)n3)cc2)CC1 | SYK (Homo sapiens, UniProt P43405, S550Y) | kinase activity, inhibitor |  |  |  | 0.056 ± 0.013 µM
Cc1ccc(CNC(=S)N/N=C/c2ccc(N3CCC(O)CC3)cc2)cc1 | CA1 | enzyme activity, inhibitor |  |  |  | 0.721 µM
c1ccc2[nH]c(-c3cscn3)nc2c1 | GSK3A (Homo sapiens, UniProt P49840) | kinase activity, inhibitor, Z'-LYTE |  |  |  | 64.4 µM
Cc1ncc(C(=O)N[C@@H](CC(C)C)C(=O)N[C@@H](CC(C)C)C(=O)N[C@H](/C=C/S(C)(=O)=O)Cc2ccc(CN)cc2)s1 | PSMB6 | competitive ABPP | Raji cell lysate |  |  | > 10 µM
OC1(c2ccc(Cl)cc2)CCN(Cc2c[nH]c3ccccc23)CC1 | CatSper channel complex | calcium influx, inhibitor, FLIPR | human sperm | added: high pH, high potassium |  | 12 µM
O=c1nc(SCc2ccc(C(F)(F)F)cc2)nc(SCc2csc3ccc(Cl)cc23)[nH]1 | TOP2A (Homo sapiens, UniProt P11388) | decatenation, inhibitor |  |  |  | 6.6 µM
CC(C)(C)NC(=O)CC[C@H](NC(=O)C(=O)c1c[nH]c2ccccc12)C(=O)NCc1cccc(B(O)O)c1 | PSMB6 | inhibitor |  |  |  | > 33.3 µM
OC1CCN(c2ccc(/C=N/NC(=S)NCc3ccc(Cl)cc3)cc2)CC1 | CA1 | enzyme activity, inhibitor |  |  |  | 0.408 µM
COc1cc(/C=N/n2c(C)nc3ccc(C)cc3c2=O)cc([N+](=O)[O-])c1O | PLA2G5 | enzyme activity, inhibitor, colorimetric |  |  |  | 65.4 ± 1.71 µM
Nc1nonc1-n1cc(C(=O)N/N=C/c2cc(Cl)cc(C(F)(F)F)c2)nn1 | SIRT6 (Homo sapiens, UniProt Q8N6T7) | H3K9Ac deacetylation, inhibitor |  |  |  | 9.15 ± 0.21 µM
COc1ccc2c3c([nH]c2c1)[C@H](CC(C)C)N1C(=O)[C@H](CC(=O)NC(C)C)NC(=O)[C@@H]1C3 | ABCG2 | inhibitor, item: protoporphyrin IX | A549 | 2 h, added: 1 mM ALA |  | 0.22 µM and 0.25 µM and 0.307 µM and 0.297 µM
CN1CCN(c2ccc(Nc3ncc4cc(C#N)c(=O)n(C5CCCC5)c4n3)cc2)CC1 | CSK |  |  |  |  | 0.602 µM
COc1ccc(NC(=S)N/N=C/c2cn(S(=O)(=O)c3ccc(C)cc3)c3ccccc23)cc1 | mushroom tyrosinase | enzyme activity, inhibitor |  | added: L-DOPA substrate |  | 29.4 ± 0.6 µM
O=c1c2ccccc2nc2n1CCc1c-2[nH]c2ccccc12 | Cytochrome P450 3A2 (Cyp3a2, Rattus norvegicus, UniProt P05183) | enzyme activity, inhibitor | Sprague-Dawley rat, male, liver microsomes | 30 (unit not given), pH 7.4, added: testosterone 100 µM |  | 16.7 µM
Cc1ncc(C(=O)N[C@@H](CC(C)C)C(=O)N[C@@H](CC2CCC(C)CC2)C(=O)N[C@H](/C=C/S(C)(=O)=O)Cc2ccc(CN)cc2)s1 (stereo partly shown) | PSMB6 | competitive ABPP | Raji cell lysate |  |  | > 10 µM
CC(C)C[C@@H](N)[C@H](O)C(=O)N[C@H](C(=O)N[C@H](C(=O)N[C@@H](CC(=O)O)C(=O)O)C(C)C)C(C)C | rat neuron-specific aminopeptidase | enzyme activity, inhibitor |  |  |  | 0.05 µM
N#Cc1ccc(COc2cccc(C3CCN(Cc4nc5ccc(C(=O)O)cc5n4C[C@@H]4CCO4)CC3)n2)c(F)c1 | PDE10A (Homo sapiens, UniProt Q9Y233) | enzyme activity |  |  |  | 0.22 µM
CCN(CC)CCNC(=O)C1CCN(c2ccc3nnc(-c4cccc(C)c4)n3n2)CC1 | CatSper channel complex | calcium influx, inhibitor, FLIPR | human sperm | added: high pH, high potassium |  | 11 µM
CC(C)C[C@H](NC(=O)c1cnccn1)C(=O)N[C@@H](C)C(=O)N[C@H](/C=C/S(C)(=O)=O)Cc1ccc(CN)cc1 | PSMB6 | competitive ABPP | Raji cell lysate |  |  | > 10 µM
CCCCNCc1ccc2[nH]c3c(C)c4ccncc4c(C)c3c2c1 | Toll-like receptor 3 | reporter gene, inhibitor | HEK-Blue hTLR3 | added: poly(I:C) |  | 0.12 ± 0.04 µM
COc1cc2c(cc1OC)C1CC(=O)C(CC(C)C)CN1CC2 (stereo not shown) | SLC18A2 (Homo sapiens, UniProt Q05940, I308V/L37F/Y433F) | FFN206 uptake, inhibitor, fluorescence imaging |  | L37F/I308V/Y433F mutant, added: FFN206 5 µM |  | 1.03 µM
Cc1nc(F)ccc1-c1cc(Cn2ccn(C)c2=N)cc(C(=O)NCc2ccc(Cl)c(Cl)c2)c1 | WD repeat-containing protein 5, MLL4 complex (WDR5, Homo sapiens, UniProt P61964) | MLL4 methyltransferase activity, inhibitor |  | added: H3 peptide substrate |  | 5.1 µM
Nc1nc2c(ncn2[C@@H]2O[C@H](COP(=O)(O)OP(=O)(O)OP(=O)(O)O)[C@@H](O)[C@H]2O)c(=O)[nH]1 | dGTP triphosphohydrolase (Leeuwenhoekiella blandensis, UniProt A3XHN1) | dGTPase activity, inhibitor, enzyme-coupled |  | added: 1 mM dGTP |  | ~2300 µM

SMILES | target | test | test system | setting | how to read | IC50
O=S1(=O)O[C@@H]2[C@H](O)[C@@H](O)[C@H](O)[C@@H](CO)[C@@H]2O1 | Oligosaccharide 4-alpha-D-glucosyltransferase (agd31B, Cellvibrio japonicus, UniProt B3PEE6) | enzyme activity, inhibitor |  | 30 min preincubation, pH 6.5, 25 °C |  | 0.49 ± 0.02 µM
Cc1ncc(C(=O)N[C@H](C(=O)N[C@@H](CC(C)C)C(=O)N[C@H](/C=C/S(C)(=O)=O)Cc2ccc(CN)cc2)C2CCCCC2)s1 | PSMB6 | competitive ABPP | Raji cell lysate |  |  | > 10 µM
Cn1cc2c(C(=O)O)ccc(NS(=O)(=O)c3ccc(OCC4CCC4)c(Cl)c3)c2n1 | SLC6A4 (Homo sapiens, UniProt P31645) | antagonist |  |  |  | > 10 µM
CN1CCN(c2cnc3c(cc(C(=O)NCc4ccc(Cl)cc4)c(=O)n3CC(=O)N3CC(C)(F)C3)n2)C1=O | KCNH2 | ion current, automated patch clamp | CHO expressing hERG |  |  | > 30 µM and 33 µM
Cc1nn(C)c2ncc(C(=O)Nc3ccccc3)c(Cl)c12 | MDH2 (Sus scrofa, UniProt P00346) | enzyme activity, reporter counter-screen |  | native enzyme |  | > 63 µM
COc1ccc(F)cc1C(=O)NCc1ccc(-c2nn([C@@H](C)C(F)(F)F)c(N)c2C(N)=O)cc1 | YES1 (Homo sapiens, UniProt P07947) | target engagement, NanoBRET tracer displacement | HEK293 |  | above top tested dose | > 5 µM
C1=Cc2cccc3cccc1c23 | Cytochrome P450 2A6 (CYP2A6, Homo sapiens, UniProt P11509) | enzyme activity, inhibitor |  | 20 min, pH 7.4 |  | 33 µM
O=C(Nc1cccc2c(=O)cc(-c3nnn[nH]3)oc12)c1ccc(OCCCCc2ccccc2)cc1 | LRRC8A/LRRC8C (Homo sapiens, UniProt Q8IWT6+Q8TDW0, Y124F/Y126F) | ion current, inhibitor, whole-cell patch clamp | HCT116 LRRC8-/- transfected | at -100 mV |  | 45.1 µM
Cc1ccc(NC(=O)c2ccc(C)c(C(F)(F)F)c2)cc1C#Cc1nn(C2CCC(O)CC2)c2ncnc(N)c12 (stereo not shown) | CSK | inhibitor, radiometric kinase |  | added: ATP 10 µM |  | 0.009 µM
Cc1ncc(C(=O)N[C@@H](CC2CCCCC2)C(=O)N[C@@H](CC2CCCCC2)C(=O)N[C@H](/C=C/S(C)(=O)=O)Cc2ccc(CN)cc2)s1 | PSMB6 | competitive ABPP | Raji cell lysate |  |  | > 10 µM
Cc1ccc(S(=O)(=O)n2cc(/C=N/NC(=S)Nc3ccc([N+](=O)[O-])cc3)c3ccccc32)cc1 | mushroom tyrosinase | enzyme activity, inhibitor |  | added: L-DOPA substrate |  | 7.26 ± 0.18 µM
CC#CC(=O)N1CC[C@@H](n2c(=O)n(-c3ccc(Oc4ccccc4)cc3)c3c(N)ncnc32)C1 | CSK |  |  |  |  | 0.975 µM
O=C1CC[C@H](N2Cc3cc(N4CCN(CC5CCN(c6ccc([C@@H]7c8ccc(O)cc8CC[C@@H]7c7ccccc7)cc6)CC5)CC4)ccc3C2=O)C(=O)N1 | ABCG2 | inhibitor |  |  |  | 4.9 µM
CCn1c(-c2nc3cc(C(=O)N4CCC[C@@H](N)C4)cc(OC)c3n2C)cc2cccnc21 | HTR1B (Homo sapiens, UniProt P28222) | antagonist, GTPγS binding |  |  |  | > 31.6 µM
[Fe+2].c1ccc(CN(CCN(Cc2ccccn2)Cc2ccccn2)Cc2ccccn2)cc1 | Proteasome subunit beta type-6, caspase-like site (PSMB6, Homo sapiens, UniProt P28072) | caspase-like activity, inhibitor, purified 20S proteasome |  | pH 7.4, added: 20 µM Z-LLE-AMC |  | > 1000 µM
Cc1ccc(CNC(=S)N/N=C/c2cn(S(=O)(=O)c3ccc(C)cc3)c3ccccc23)cc1 | mushroom tyrosinase | enzyme activity, inhibitor |  | added: L-DOPA substrate |  | 28.6 ± 0.47 µM
CC1(F)CN(C(=O)Cn2c(=O)c(C(=O)NCc3ccc(Cl)cc3)cc3nc(N4CCNC4=O)cnc32)C1 | KCNH2 | ion current, automated patch clamp |  |  |  | 38.2 µM
COc1ccc(-c2cncc(N[C@@H](C)c3cccc(NC(=O)c4cncc(C)c4)c3)n2)cc1OC | KIT (Homo sapiens, UniProt P10721) |  |  |  |  | 0.02 µM
Cc1ncc(C(=O)N[C@@H](CC(C)C)C(=O)N[C@@H](CC2CCCC3CCCCC32)C(=O)N[C@H](/C=C/S(C)(=O)=O)Cc2ccc(CN)cc2)s1 (stereo partly shown) | PSMB6 | competitive ABPP | Raji cell lysate |  |  | > 10 µM
Cc1ccc(S(=O)(=O)n2cc(/C=N/NC(=S)Nc3cc(C)cc(C)c3)c3ccccc32)cc1 | mushroom tyrosinase | enzyme activity, inhibitor |  | added: L-DOPA substrate |  | 20.6 ± 0.35 µM
CC[C@@H]1[C@H](F)C(=O)N[C@@H]1COc1nccc2cc(C(N)=O)c(OC)cc12 | TP53RK (Homo sapiens, UniProt Q96S44) | ATP-site binding, ActivX kinase profiling | THP-1 cell lysate | PRPK ATP-loop probe peptide |  | 3.3 µM
CC(=O)OCc1ccc2[nH]c3c(C)c4ccncc4c(C)c3c2c1 | Toll-like receptor 3 | reporter gene, inhibitor | HEK-Blue hTLR3 | added: poly(I:C) |  | 0.09 ± 0.01 µM
Cc1nc2ccc(Br)cc2c(=O)n1/N=C/c1ccc(C(=O)O)cc1 | PLA2G5 | enzyme activity, inhibitor, colorimetric |  |  |  | 33 ± 1.37 µM

A few entries again:
SMILES | target | test | test system | setting | how to read | IC50
O=c1nc(SCc2ccc(C(F)(F)F)cc2)nc(SCc2csc3ccc(Cl)cc23)[nH]1 | TOP2A (Homo sapiens, UniProt P11388) | decatenation, inhibitor |  |  |  | 6.6 µM
Cc1ncc(C(=O)N[C@@H](CC2CCCCC2)C(=O)N[C@@H](CC2CCCCC2)C(=O)N[C@H](/C=C/S(C)(=O)=O)Cc2ccc(CN)cc2)s1 | PSMB6 | competitive ABPP | Raji cell lysate |  |  | > 10 µM
COc1cc(/C=N/n2c(C)nc3ccc(C)cc3c2=O)cc([N+](=O)[O-])c1O | PLA2G5 | enzyme activity, inhibitor, colorimetric |  |  |  | 65.4 ± 1.71 µM
Cc1nc2ccc(Br)cc2c(=O)n1/N=C/c1ccc(C(=O)O)cc1 | PLA2G5 | enzyme activity, inhibitor, colorimetric |  |  |  | 33 ± 1.37 µM
